Results pooled from the literature.
Protocols differ between the studies behind these lines. Several values in a cell are separate wells, animals, samples, runs or records.
Target: Serine/threonine-protein kinase pim-3 (PIM3, Homo sapiens, UniProt Q86V86)

CN1CCN(Cc2ccc(-c3ccc(CO[C@H]4CCC[C@@H]4NC(=O)c4cc(-c5cnn(C)c5)cnc4N)cc3)cc2)CC1 — inhibition (enzyme activity, inhibitor; 0.1 µM): 2%
Cc1cccc(O[C@H]2CCC[C@@H](C(C)CNCc3ccncc3)C2)c1 (relative stereo) — inhibition (enzyme activity, inhibitor; 10 µM): -1%
O=C=[N][Ru-4]123([n]4c5ccc(O)cc5c5c6c(c7cc(F)c[n+]1c7c54)C(=O)NC6=O)[S+]1CC[S+]2CC[S+]3CC1 (centres unmarked) — remaining activity (enzyme activity; 100 nM, human enzyme, with: 10 µM ATP; baseline: untreated): 30%
NC(=O)C[C@H]1CCc2sc3ncnc(O[C@H]4CC[C@H](N5CCOCC5)CC4)c3c21 — inhibition (enzyme activity, inhibitor; 10 µM): 2%
COc1ccc(NC(=O)Nc2ccc3c(c2)C(=O)N(C(C)CO)CC(C)C(CN(C)Cc2ccc4c(c2)OCO4)O3)cc1 (centres unmarked) — remaining binding (binding, competition with immobilised ligand; 10 µM): 72%
COc1ccc(C(=O)/C=C/c2ccccc2-c2c[nH]c3ccc(C#N)cc23)c(O)c1 — inhibition (enzyme activity, inhibitor; 20 µM): 28%
CN1CCN(Cc2ccc(NC(=O)c3cccc(C#Cc4cnc(N)c5ncccc45)c3)cc2C(F)(F)F)CC1 — remaining binding (cell-free assay, competition with immobilised ligand; 0.5 µM): 100%
C=CC(=O)N1CCc2ccc(-n3c(=O)ccc4cnc5ccc(-c6cnn(C)c6)cc5c43)cc21 — remaining binding (KINOMEscan; 1 µM; baseline: DMSO control): 100%
Nc1ncc2c(n1)-c1c([nH]c3ccc(C4=CCOCC4)cc13)CCC2 — remaining binding (binding, competition with immobilised ligand; 1 µM): 100%
CCn1cc(C(=O)O)c(=O)c2c(N)c(F)c(NC3CCCCC3)cc21 — inhibition (enzyme activity, inhibitor; 0.1 µM): > 50%
CNC(=O)C1CCN(c2cc(C)c(F)cc2NC(=O)c2ccc(-c3cc(O)ccc3C)c(C)c2)CC1 — remaining binding (binding, competition with immobilised ligand; 1 µM): 47%
Cc1cccc(-c2ccc3nc(NC(=O)C4CCCCC4)nn3c2)c1 — remaining activity (enzyme activity, Dundee kinase panel; 10 µM): 99%
CN1CC[C@@H](COc2cnc(C#N)cc2-c2ccn3nc(NC(=O)C4CC4)cc3c2)C1 — inhibition (enzyme activity, inhibitor; 1 µM): -10%
CNS(=O)(=O)Nc1nccc(Cc2c(C)c3ccc(Oc4ncccc4F)cc3oc2=O)c1F — remaining binding (binding, competition with immobilised ligand; 10 µM): 91%
C=CC(=O)Nc1cccc(-c2cnc3[nH]cc(C(=O)NC(C)(C)C)c3n2)c1 — inhibition (kinase activity; 0.1 µM): 1% and -3%
Cc1ccc(C)c(-c2ccc3nc(NC(=O)C4CCCCC4)nn3c2)c1 — remaining activity (enzyme activity, Dundee kinase panel; 10 µM): 78%
CC(=O)N1c2ccc(-c3ccc(CNC(=O)c4cn5cc(-c6cnc(N)nc6)nc(N6CCOCC6)c5n4)cc3)cc2CC[C@@H]1C — remaining binding (KINOMEscan; 10 µM): 99%
COc1cc(Nc2nc(C)cc(-c3cnn4nc(OC)ccc34)n2)cc(C(F)(F)F)c1 — remaining activity (inhibitor; 1 µM; baseline: control): 83%
Cc1ccc(-c2c(/C=C(\C#N)C(=O)NC(C)C)n(CCCO)c3ncnc(N)c23)cc1 — remaining binding (cell-free assay, competition with immobilised ligand; 1 µM): 100%
Cc1cnc2nc1Nc1cccc(c1)COC/C=C/COCc1cc(ccc1OCCN1CCOCC1)N2 — remaining binding (binding; 0.1 µM): 99%

A few entries again:
COc1ccc(C(=O)/C=C/c2ccccc2-c2c[nH]c3ccc(C#N)cc23)c(O)c1 — inhibition (enzyme activity, inhibitor; 20 µM): 28%
CN1CCN(Cc2ccc(NC(=O)c3cccc(C#Cc4cnc(N)c5ncccc45)c3)cc2C(F)(F)F)CC1 — remaining binding (cell-free assay, competition with immobilised ligand; 0.5 µM): 100%
C=CC(=O)N1CCc2ccc(-n3c(=O)ccc4cnc5ccc(-c6cnn(C)c6)cc5c43)cc21 — remaining binding (KINOMEscan; 1 µM; baseline: DMSO control): 100%
